Results pooled from the literature.
Lines come from different studies, so protocols differ. Values joined by “and” are separate records of one study, mostly repeats; a detail may differ. ± marks the error that the study gave.

Structure (SMILES) | assay | system | conditions | scale | measurement | value
COc1cccc(OC)c1-c1cc(C(=O)NC2(C(=O)O)C3CC4CC(C3)CC2C4)nn1-c1ccc(C(=O)N(C)CCOCCN(C)C(=O)[C@H](CCCCNC(=O)[C@H](CC(C)C)NC(=O)C2OC2C(=O)O)NC(=O)CN2CCN(CC(=O)[O-])CCN(CC(=O)[O-])CCN(CC(=O)[O-])CC2)cc1C(C)C.[177Lu+3] (mixture of isomers) | – | mouse, HT-29 xenograft, brain | 24 h post injection | – | tissue uptake | 0.17 %ID/g
Cc1nc(N)nc2c1C(=O)N[C@@H](c1ccc(F)cc1-c1cccc(O[11CH3])n1)C2 | ex vivo biodistribution | mice, MDA-MB-231 subcutaneous xenograft, stomach | 60 min post-injection, baseline, vehicle pre-treatment | – | tracer uptake | 1.6 ± 0.2 %ID
CN(Cc1cc(C2CC2)on1)C(=O)c1cccc(-c2ccc(F)cc2)c1 | – | male ICR/CD-1 mouse, liver microsomes | 2 µM, 60 min, pH 7.5, together with: 1-aminobenzotriazole 500 µM, preincubated 30 min | – | remaining compound | 73.8%
C/C(N)=N/C(=N\S(=O)(=O)c1ccc(C(F)(F)F)cc1)N1C[C@H](c2ccccc2)C(c2ccc(Cl)cc2)=N1 | – | Beagle dog, plasma | oral, 36 mg/kg, observed value | – | Tmax | 60 min
C=C(NC(=O)c1csc(-c2nc3c(cc2O)-c2nc(cs2)C(=O)NC(C(C)O)C(=O)NC(=C(C)OC)c2nc(cs2)C(=O)NC2c4nc(cs4)C(=O)NC(COC(=O)c4c5c6c(cccc6n4O)COC(=O)C(OC4CC(C)(O)C(N(C)C)C(C)O4)C2OC5)c2nc-3cs2)n1)C(N)=O (stereo not shown) | – | ICR mice, Streptococcus pneumoniae ATCC 49169 infected, immunocompromised, blood | intravenous, 2 mg/kg/day twice daily | – | AUC(0-t) | 159 ng·h/mL
CCCCN1C(=O)c2cccc3c(NCCCCCCN4CCOCC4)ccc(c23)C1=O | – | methanol | – | – | Stokes shift | 94 nm
CN1CCCNC(=O)c2cccc(c2)C(=O)NCCCN(C)CCCNc2cccc3c2C(=O)c2cccc(c2C3=O)NCCC1 | histopathology | tumour-free KSN/Slc nude mice, liver and kidney | dose not given, 10 days | – | lesion area | 2.14e+07 µm2
Cc1cc(C(=O)NC(C)(C)CO)cc(C)n1 | LC-MS metabolite profiling | Sprague-Dawley rat, both sexes, plasma | oral, 100 mg/kg of parent drug, 0.5 (unit not given) | higher = more metabolite | plasma peak area | 224000 a.u.
O=C(O)CCCOc1ccc([18F])cc1-c1cc(-c2ccccc2C(F)(F)F)n(-c2ccccc2)n1 | – | formulated product | 3 h after synthesis end, room temperature | – | radiochemical purity | 99.3 ± 0.4%
CNc1cc(C)c(C(N)=O)cn1 | – | Han Wistar rats, male, plasma | oral, 30 mg/kg, 1.50 h | – | plasma concentration | 109 µM
O=C1c2sc(-c3ccc(N4CCC(CO)CC4)nc3F)nc2CCN1c1cccnc1 | – | CD1 mouse, brain | i.v., dose not given, 0.083 h | – | concentration | 479 ng/g and 414 ng/g and 449 ng/g
CCCCN1C(=O)c2cccc3c(NCCCCN4CCOCC4)ccc(c23)C1=O | – | chloroform | – | – | fluorescence quantum yield | 0.6
N#C[C@@H]1CC(F)(F)CN1C(=O)CNC(=O)c1ccnc2c(NC(=O)CCOCCOCCOCCOCCOCCOCCNC(=O)C(CCCCNC(=O)CN3CCN(CC(=O)[O-])CCN(CC(=O)[O-])CCN(CC(=O)[O-])CC3)NC(=O)CCCc3ccc(I)cc3)cccc12.[68Ga+3] (stereo partly shown) | – | PBS | 30 min, 37 °C, 68Ga-labelled | – | radiochemical stability | 99.32 ± 0.7%
CCCCCCCOc1ccc(CC[C@](N)(CO)COP(=O)(O)O)cc1C(F)(F)F | – | healthy men, urine and plasma | oral, 0.5 mg once daily, day 21, fed state | – | renal clearance | 0.0233 mL/min
O=C([O-])CN1CCN(CC(=O)O)CCN(CC(=O)[O-])CCN(CC(=O)O)CC1.[64Cu+2] | dynamic micro-PET imaging | rat, chronic myocardial infarction, infarct fibrotic myocardium | intravenous | – | clearance half-life | 21.4 ± 1.3 min
COc1ccc2c(c1)CCn1c[n+]3c(c1-2)-c1ccc(OC)cc1CC3 | – | female NSG mice, blood | 6 mg/kg, day 14, 5 days per week | – | Monocytes | 14.3 ± 3.23%

Structure (SMILES) | assay | system | conditions | scale | measurement | value
O=C1c2sc(-c3ccc(N4CCC(F)C4)nc3F)nc2CCN1c1cccnc1 (stereo not shown) | – | CD1 mouse, brain | i.v., dose not given, 0.083 h | – | concentration | 344 ng/g and 444 ng/g and 448 ng/g
CC[C@H](C)[C@@H]1NC(=O)[C@H](Cc2ccc(O)cc2)NC(=O)CCCSC[C@@H](C(=O)N(CC(=O)N[C@@H](CC(C)C)C(=O)NCC(N)=O)Cc2ccc(F)cc2)NC(=O)[C@H](CC(N)=O)NC(=O)[C@H](CCC(N)=O)NC1=O | – | healthy human, plasma | intranasal, 400 µg every 3 h, after first dose | – | terminal half-life | 25.2 min
CCCCN1C(=O)c2cccc3c(NCCCN4CCOCC4)ccc(c23)C1=O | – | methanol | – | – | Stokes shift | 95 nm
[123I]c1ccc2nc(-c3ccc(-n4ccnn4)nc3)cn2c1 | – | male Wistar rat, liver | intravenous, 4 MBq, 5 min | – | tracer uptake | 3.5 %ID/g
CC(C)[C@H](NC(=O)[C@H](Cc1c[nH]c2ccccc12)NC(=O)[C@H](CCCNC(=N)N)NC(=O)[C@H](CCCNC(=N)N)NC(=O)[C@@H](NC(=O)[C@@H](NC(=O)[C@H](CCCNC(=N)N)NC(=O)[C@@H](NC(=O)[C@@H](NC(=O)[C@H](CCCNC(=N)N)NC(=O)[C@H](CCCNC(=N)N)NC(=O)[C@@H](NC(=O)[C@H](Cc1c[nH]c2ccccc12)NC(=O)[C@H](CCCNC(=N)N)NC(=O)[C@H](CCCNC(=N)N)NC(=O)[C@@H](NC(=O)[C@H](CCCNC(=N)N)NC(=O)[C@H](CCCNC(=N)N)NC(=O)[C@@H](NC(=O)[C@H](Cc1c[nH]c2ccccc12)NC(=O)[C@H](CCCNC(=N)N)NC(=O)[C@@H](N)CCCNC(=N)N)C(C)C)C(C)C)C(C)C)C(C)C)C(C)C)C(C)C)C(C)C)C(=O)N[C@@H](CCCNC(=N)N)C(=O)N[C@@H](CCCNC(=N)N)C(=O)O | – | CD1 mouse, urine | intravenous, 15 mg/kg, 16 h, [14C]-labelled compound | – | sodium | < 100 mEq/L
O=C(Nc1cnccc1-c1ccc([18F])cc1)c1ccnc(NC(=O)C2CC2)c1 | ex vivo gamma counting | GSK-3β transgenic mice, late-stage, small intestine | intravenous, 1.26 MBq/animal, 120 min, mean, no P-gp inhibitor | – | SUV | 2.16
CC(=O)N([O-])CCCCCNC(=O)CCC(=O)N([O-])CCCCCNC(=O)CCC(=O)N([O-])CCCCCN.[89Zr+4] | – | PBS | 7 days, pH 7, 37 °C | – | intact compound | 97.6 ± 1%
COCC1CN(C2CCN(c3cc(OC)c(Nc4ncc(Br)c(Nc5ccc6c(c5P(C)(C)=O)OCCO6)n4)cc3C)CC2)C1 | – | EGFR-mutant NSCLC patients, plasma | oral, 240 mg single dose, geometric mean | – | AUC(0-t) | 49900 ng·h/mL
C=CC(=O)Nc1cc(Nc2nccc(-c3c[nH]c4ccccc34)n2)c(OC)cc1N(C)CCN(C)C | storage stability | human plasma | 30 d, -80 °C, LQC level | – | recovery | 94.4%
N#C[C@@H]1CC(F)(F)CN1C(=O)CNC(=O)c1ccnc2c(NC(=O)C(CCCCNC(=O)CCOCCOCCOCCOCCOCCOCCNC(=O)CN3CCN(CC(=O)[O-])CCN(CC(=O)[O-])CCN(CC(=O)[O-])CC3)NC(=O)CCCc3ccc(I)cc3)cccc12.[68Ga+3] (stereo partly shown) | – | human serum | 60 min, 37 °C, 68Ga-labelled | – | radiochemical stability | 98.83 ± 0.1%
CC1(C)C(=CC=C2CCCC(C=CC3=[N+](CCC[N+](C)(C)C)c4ccc(S(=O)(=O)O)cc4C3(C)C)=C2SCCOCCOCCC(=O)O)N(CCC[N+](C)(C)C)c2ccc(S(=O)(=O)O)cc21 | – | PBS | pH 7.4 | – | Stokes shift | 28 nm
N#Cc1cc(NC(=O)C2c3ccccc3C(=O)N(CC(F)(F)F)C2c2ccc[n+]([O-])c2)ccc1F (stereo not shown) | – | human | 900 mg, unit not given | reference: other 6 cohorts | apparent oral clearance increase | 1.3
O=C(Nc1cnccc1-c1ccc([18F])nc1)c1ccnc(NC(=O)C2CC2)c1 | – | FVB/NJ mice (both sexes), spleen | intravenous, dose not given, 120 min, together with: tariquidar 15 mg/kg i.v. pre-dose | – | SUV | 0.318
CC#CC(=O)N1CCC[C@H]1c1nc(-c2ccc(C(=O)Nc3ccccn3)cc2)c2c(N)nccn12 | – | mouse, TMD8 tumour-bearing, plasma | 15 mg/kg twice daily, 12 h | – | trough concentration | 0.13 ng/mL
CCCCN1C(=O)c2cccc3c(NCCCCCN4CCOCC4)ccc(c23)C1=O | – | DMSO | – | – | Stokes shift | 88 nm

Repeated from above:
Structure (SMILES) | assay | system | conditions | scale | measurement | value
CCCCN1C(=O)c2cccc3c(NCCCCCCN4CCOCC4)ccc(c23)C1=O | – | methanol | – | – | Stokes shift | 94 nm
COc1ccc2c(c1)CCn1c[n+]3c(c1-2)-c1ccc(OC)cc1CC3 | – | female NSG mice, blood | 6 mg/kg, day 14, 5 days per week | – | Monocytes | 14.3 ± 3.23%
CC(C)[C@H](NC(=O)[C@H](Cc1c[nH]c2ccccc12)NC(=O)[C@H](CCCNC(=N)N)NC(=O)[C@H](CCCNC(=N)N)NC(=O)[C@@H](NC(=O)[C@@H](NC(=O)[C@H](CCCNC(=N)N)NC(=O)[C@@H](NC(=O)[C@@H](NC(=O)[C@H](CCCNC(=N)N)NC(=O)[C@H](CCCNC(=N)N)NC(=O)[C@@H](NC(=O)[C@H](Cc1c[nH]c2ccccc12)NC(=O)[C@H](CCCNC(=N)N)NC(=O)[C@H](CCCNC(=N)N)NC(=O)[C@@H](NC(=O)[C@H](CCCNC(=N)N)NC(=O)[C@H](CCCNC(=N)N)NC(=O)[C@@H](NC(=O)[C@H](Cc1c[nH]c2ccccc12)NC(=O)[C@H](CCCNC(=N)N)NC(=O)[C@@H](N)CCCNC(=N)N)C(C)C)C(C)C)C(C)C)C(C)C)C(C)C)C(C)C)C(C)C)C(=O)N[C@@H](CCCNC(=N)N)C(=O)N[C@@H](CCCNC(=N)N)C(=O)O | – | CD1 mouse, urine | intravenous, 15 mg/kg, 16 h, [14C]-labelled compound | – | sodium | < 100 mEq/L
